Measurements collected from several papers.
A part holds a random share of what one study measured. Changes are numbered by the printed parent chain.
UniProt P08311, sequence (whole entry, looked up): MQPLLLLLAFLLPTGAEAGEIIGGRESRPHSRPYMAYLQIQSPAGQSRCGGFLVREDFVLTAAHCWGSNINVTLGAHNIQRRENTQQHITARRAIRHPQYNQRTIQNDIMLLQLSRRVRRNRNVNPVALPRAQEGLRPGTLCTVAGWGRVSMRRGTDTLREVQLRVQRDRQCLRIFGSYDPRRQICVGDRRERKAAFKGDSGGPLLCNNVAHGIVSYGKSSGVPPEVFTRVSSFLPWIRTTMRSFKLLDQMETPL

Series 1 — target: UBE2A UBC core domain (UniProt P49459); technique: yeast two-hybrid; sample: yeast; setting: mostly zero background; relative to: not given; direction: higher = stronger interaction
UniProt P49459, sequence (whole entry, looked up): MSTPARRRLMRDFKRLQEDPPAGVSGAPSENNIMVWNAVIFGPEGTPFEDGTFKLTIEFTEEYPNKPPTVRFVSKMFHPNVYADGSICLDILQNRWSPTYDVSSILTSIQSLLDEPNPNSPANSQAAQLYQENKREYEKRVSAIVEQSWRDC
B1: RNF182 RING domain (UniProt Q8N6D2); chain AESQASDELECKICYNRYNLKQRKPKVLECCHRVCAKCLYKIIDFGDSPQGVIVCPFCRFETCLPDDEV
B2: TRIM11 RING domain (UniProt Q96F44); chain LSTNLQEEATCAICLDYFTDPVMTDCGHNFCRECIRRCWGQPEGPYACPECRELSPQRNLRP
B3: RUFY1 RING domain (UniProt Q96T51); chain QALKGHAWLKDDEATHCRQCEKEFSISRRKHHCRNCGHIFCNTCSSNELALPSYPKPVRVCDSCHTLLLQRCSSTAS
B4: ARIH2 RING domain (UniProt O95376); chain HVPTSHPPHHCAVCMQFVRKENLLSLACQHQFCRSCWEQHCSVLVKDGVGVGVSCMAQDCPLRTPEDFVF
Molecule	lacZ reporter activity
LEALSSDFLACKICLEQLRAPKTLPCLHTYCQDCLAQLADGGRVRCPECRETVPVPPEGV (TRIM56 RING domain (UniProt Q9BRZ2))	0
EIKEYKARLTCPCCNTRKKDAVLTKCFHVFCFECVRGRYEARQRKCPKCNAAFGAHDFHR (RNF40 RING domain (UniProt O75150))	0
B1 (RNF182 RING domain)	0
B2 (TRIM11 RING domain)	0
B3 (RUFY1 RING domain)	0
B4 (ARIH2 RING domain)	0
FAEQPSVKLCCQLCCSVFKDPVITTCGHTFCRRCALKSEKCPVDNVKLTVVVNNI (TRAF7 RING domain (UniProt Q6Q0C0))	0
ASPKIFQKTKCSICNSALELPSVHFLCGHSFHQHCFESYSESDADCPTCLPENRKVMDMI (VPS11 RING domain (UniProt Q9H270))	0

Series 2 — target: CCND3, cyclin fold, Cln2 fusion (human); technique: yeast growth competition, sequencing; sample: yeast; setting: weak parent motif; relative to: not given; direction: higher = stronger binding; starting sequence: viral docking peptide; YKVKRRLVFGADD
Change	normalised enrichment score
YKVKRKLVFGADD [R6K]	0.00892
YKVKHRLVFGADD [R5H]	0.146
YKVKRRLTFGADD [V8T]	-0.175
YKVKRRLVLGADD [F9L]	0.56
YKVKRRLVFCADD [G10C]	0.188
YKVCRRLVFGADD [K4C]	0.832
YKGKRRLVFGADD [V3G]	-0.192
YKVKRRMVFGADD [L7M]	0.0907

Other studies, line by line
SMILES	target or system	test	test system	conditions	how to read	measurement	result
CCN(CC)CCCOC(=O)C(OC(C)C)(c1ccccc1)c1ccccc1	–	–	human, microsomes or S9	2 µM, 0.5 h	–	remaining compound	59.8%
O=c1c2ccccc2[se]n1-c1ccccc1	Sarcocystis neurona	parasite growth	–	10 µM, 96 h, second screen	relative to: untreated	log2 fold change	0.47
COc1ccc(-c2c(Nc3ccccn3)[nH]c3c(C4=CCCCC4)c(-c4ccccc4)nn3c2=O)cc1	–	–	patients with advanced malignancies	oral, dose not given, treatment-emergent adverse events	–	ALT increased incidence	10%
CC[C@H]1C(=O)N[C@@H](CC(C)C)C(=O)N2CCC[C@@H]2C(=O)N(C)[C@@H](Cc2ccccc2)C(=O)N[C@@H](CC(C)C)C(=O)N(C)[C@H](C)C(=O)N1C	–	logD(dd/w) and ALogP	–	MRN method	–	lipophilic permeability efficiency	3.62
CC(C)C[C@H](NC(=O)[C@@H](NC(=O)N[C@@H](Cc1ccccc1)C(=O)O)[C@@H]1CCN=C(N)N1)C(=O)N[C@H](C=O)Cc1ccccc1	Cathepsin G (CTSG, Homo sapiens, UniProt P08311)	–	–	–	–	IC50	3.57 µM

Some of these lines once more (series 2):
Change	normalised enrichment score
YKVKRRLTFGADD [V8T]	-0.175
YKVKRRLVLGADD [F9L]	0.56
